Assay results from different studies.
Protocols differ between the studies behind these lines. ± gives the spread as reported.

`O=C(O)c1cccc(S(=O)(=O)Nc2ccccc2)c1` has a half-life of 3.72 h (human, moderate liver dysfunction, plasma; intravenous, 400 mg/m^2 belinostat, 30 min infusion, cycle 1 day -7).
The half-life of `C[Si]1(C[C@H](CN)CC(=O)O)CCCC1` is reported as 1.51 h (male Sprague-Dawley rat, plasma; oral, 30 mg/kg, single dose).
`CCCCCCCCN(CCC(=O)Nc1ccccc1)C(=O)c1ccccn1` gave a half-life of > 24 h (chemical stability; human, culture medium; 500 µM).
For `C[Si](C)(C)C[C@H](CN)CC(=O)O`, the half-life was 2.19 h (male Sprague-Dawley rat, plasma; oral, 30 mg/kg, single dose).
For `O=C(O)/C=C/c1cccc(S(=O)(=O)Nc2ccccc2)c1`, the half-life was 2.95 h (human, moderate liver dysfunction, plasma; intravenous, 400 mg/m^2 belinostat, 30 min infusion, cycle 1 day -7).
With `O=C(CCc1ccc(CNC(C(=O)OC2CCCC2)C2CCCCC2)cn1)NO` (stereo not drawn) the half-life was 0.429 h (human, plasma; oral, 40 mg, single dose, geometric mean).
With `CC(C)C[C@@H](CC(=O)N[C@@H](CO)C(=O)N1CCC[C@H]1C(=O)N[C@H](C(N)=O)[C@@H](C)O)NC(=O)[C@H](Cc1cccc2ccccc12)NC(=O)[C@H](CNC(=O)c1ccc2cc(F)ccc2c1)NC(=O)[C@H](CO)NC(=O)C1CCNCC1` the half-life was > 24 h (chemical stability; male human, serum; 1 mM, pH 7.4).
The half-life of `CONC(=O)/C=C/c1cccc(S(=O)(=O)Nc2ccccc2)c1` is reported as 1.33 h (human, normal liver function, plasma; intravenous, 400 mg/m^2 belinostat, 30 min infusion, cycle 1 day -7).
The half-life of `Cc1ccc(OCC(=O)N(Cc2cccs2)c2ccn[nH]2)cc1` is reported as 0.3 h (female Sprague-Dawley rat, plasma; intravenous, 1 mg/kg, single dose).
With `N#Cc1cnc2cc(OCC3CCNCC3)c(F)cc2c1Nc1cc(F)c(OCc2cccc(Cl)n2)cc1Cl` the half-life was 10.2 h (male Sprague-Dawley rat, plasma; oral, 300 mg/kg).
`CSCOC1C(=O)C2(C)C(OCSC)CC3OCC3(OC(C)=O)C2C(OC(=O)c2ccccc2)C2(O)CC(OC(=O)C(O)C(C=C(C)C)NC(=O)OC(C)(C)C)C(C)=C1C2(C)C` (stereo not drawn) has a half-life of 8 h (male Sprague-Dawley rat, plasma; intravenous, 2 mg/kg).
`NC(=O)/C=C/c1cccc(S(=O)(=O)Nc2ccccc2)c1` gave a half-life of 7.67 h (human, mild liver dysfunction, plasma; intravenous, 400 mg/m^2 belinostat, 30 min infusion, cycle 1 day -7).
With `CC(C)(O)c1ncc([S@](N)(=O)=NC(=O)Nc2c3c(cc4c2CCC4)CCC3)s1` the half-life was 9.58 h (healthy human volunteers, plasma; oral, 100 mg once daily, day 14, spray-dried dispersion).
With `Cn1c(=O)oc2ccc(-c3ccc(CC(C#N)NC(=O)C4CNCCCO4)c(F)c3)cc21` (stereo not drawn) the half-life was 25.7 h (human, plasma; 10 mg once daily, day 28, mean).
For `Cc1nn(-c2ccc(S(=O)(=O)N[C@H](CO)CC(C)C)cc2)c2nn3nnnc3nc12`, the apoptotic cells was 9 ± 1.4% (PC-3; PI/Hoechst staining; 1 µM, 24 h).

Repeated from above:
The half-life of `C[Si]1(C[C@H](CN)CC(=O)O)CCCC1` is reported as 1.51 h (male Sprague-Dawley rat, plasma; oral, 30 mg/kg, single dose).
